Measured values collected from several papers.
Each numbered part is a random draw from the data of one study; scales do not carry over between parts.

Series 1 — technique: protein-binding microarray; molecule type: double-stranded DNA, one strand shown; medium: in vitro; concentration: 250 nM; setting: 60-bp whole probe; with: salmon DNA 0.4 mg/ml; baseline: random background probes; reading: higher = stronger binding; all sequences stand within: GCCTAGCAC … GTCTTGATTCGCTTGACGCTGCTG
Target: Interferon regulatory factor 5, full length, phosphomimetic (IRF5, Homo sapiens, UniProt Q13568-2, residues 1-514, K96S/S451D/S453D/S456D/S462D)
| Strand | log fluorescence |
| --- | --- |
| TCACTCATGGCTTTGTAACTGTGCTAG | -0.000949 z-score |
| GGAGGCTCTTGCTACTGAAGGTGCTAG | -0.818 z-score |
| GACTGTATCCTTATCCTGACGTGCTAG | 0.235 z-score |
| GAGGGTATCGGTCTCGGGACGTGCTAG | 3.31 z-score |
| TCATCTGTTCTTTTCAGACTGTGCTAG | 0.302 z-score |
| GACGGTAGCGGTTTCGGGACGTGCTAG | 2.36 z-score |
| GACAGACTGGGTATCGGGACGTGCTAG | 0.375 z-score |
| TCAGCCCTCCCTGTGGGACTGTGCTAG | -0.549 z-score |
| TCCAGGCTGGTCTCTAACTCAGTGCTA | -0.768 z-score |
| TTAGACTTCAGACTGGATTAGTGCTAG | -0.134 z-score |
| GACGGCCTGGGTCTCGGGACGTGCTAG | -0.613 z-score |
| GACGACTTCAGACTGGAGACGTGCTAG | -0.411 z-score |
| GACGATTTCAGTCTCGACACGTGCTAG | 1.59 z-score |
| GACGACATCAGTCTCGAGACGTGCTAG | 0.106 z-score |
| GACGGTATCCTTATCCTGTCGTGCTAG | 0.207 z-score |
| GACGGCATCGGTTTCGGGACGTGCTAG | 3.11 z-score |
| GACGGTTTCGGGTTTCGCGACGTGCTA | 7.52 z-score |
| TTAGATTTCAGTATCGATTGGTGCTAG | 8.16 z-score |
| GACGGTATCGACTATTGGGACGTGCTA | 2.29 z-score |

Series 2 — technique: EMSA with sequencing; molecule type: double-stranded DNA, one strand shown; medium: in vitro; concentration: 10 and 20 nM; baseline: negative control set to 0; reading: higher = stronger binding
Target: Hepatocyte nuclear factor 3-alpha (Foxa1, Mus musculus, UniProt P35582, residues 1-468, full length assumed)
Setting: whole designed probe, mean of two concentrations, ends assumed
All sequences stand within: GTGAGCGGTGCCCATTGATGGGGAAC … TTTCACTGGGATCGTGGGGAC
Target sequence (chain): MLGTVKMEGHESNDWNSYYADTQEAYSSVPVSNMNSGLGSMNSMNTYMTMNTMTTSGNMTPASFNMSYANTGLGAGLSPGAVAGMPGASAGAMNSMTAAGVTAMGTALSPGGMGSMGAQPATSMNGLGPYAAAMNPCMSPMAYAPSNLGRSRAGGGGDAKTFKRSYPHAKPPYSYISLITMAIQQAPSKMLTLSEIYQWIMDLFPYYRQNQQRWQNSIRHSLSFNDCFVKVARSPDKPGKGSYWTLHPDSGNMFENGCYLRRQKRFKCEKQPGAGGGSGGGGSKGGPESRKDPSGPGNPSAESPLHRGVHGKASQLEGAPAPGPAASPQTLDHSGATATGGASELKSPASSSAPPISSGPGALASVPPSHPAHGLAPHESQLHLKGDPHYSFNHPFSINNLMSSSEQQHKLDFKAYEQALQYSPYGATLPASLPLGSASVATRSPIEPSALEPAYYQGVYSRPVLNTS
| Strand | normalised bound fraction |
| --- | --- |
| CACAAAATTTTCCATTTGCTTCTCCTGCATTTAGAAGCATCCACTTCCCTCTCTTCCCTTTGCTTTTGAAATATAAGTGTAATATTTGCCCAGGGTAATCTGACTTGGAGCTTGGGAGACAGCATTGTGTAATGGATGTTAATTTGGCCTGATTTCACTCTTGGCTCTCTGATTTGTTAGATCTATGAACCTG | 0.0634 ratio |
| TATCTGAGAAGTCTGATCCAGAGTTGATGAGCAGATAAAAAATGTTGAAAGGATCCACGCTCTTTCCATCTCTCTGCTTAGTCATCCTCACTGAGATTGCTTTTCTTCAGTTTGTTACTTTTTTTTTTTTTTGAGATCGAGTTTCGCTCTTGTTACCCAGGCTGGAGTGCAATGGGGCGATCTCTGCTCACTG | -0.0404 ratio |
| TTATGAGCCTTCCCATGTTATGGCTACATAGCTGTGATTATGTAATAAGTGGAGTTACGCTCCTGCGCTCCAAACTCGCTGAGTCACACAGGATGTTTACCTTGGCCTATGCCTGCCTGGCTGCAGTGCAGGCATATTCCTTACAAATAAACATTTCCTGAGAAACACCTACATGCTGGGCACTCTATTAGGC | 0.268 ratio |
| CTCCTATTTGTTCTGTTTTTCTGAAAAACCCTAACATGTAACCAAATTACCCCTTTCTTCACACATCATTCTTCCAATCATGCTTTCTTTAAAATAAACAGCTAAATGTTTCTTCCTTTTAAGAAAGGTCTGTGTGCTACAGATTACCCTGCAAATGTTCTTTGTGACTATGTAGGAAAGATCAGGCACATCC | 0.104 ratio |
| TTTCCAAACCACCATCTATCTCACTGGCTTAGCAGCAGCAGCTGAGGAGTGGAAGCCAGAAGTACATTCCCATGGAGGAAAGTAAACACTTCATGTTTGCACATCCATCTCAGGAATCCTCTTAGTCACTGAAGGAAAGCAGACAGGAGTGAGTCCAAGGTTTTGGTCAAACCCTGCCTGGCATGAACTAATG | 0.406 ratio |

Series 3 — technique: RNA Bind-n-Seq; molecule type: RNA; medium: in vitro; concentration: 200 nM; setting: whole 134-nt RNA, ends assumed; with: 150 mM KCl; baseline: input library; reading: higher = stronger binding
Target: Fragile X messenger ribonucleoprotein 1, C-terminal low-complexity region (Fmr1, Mus musculus, UniProt P35922)
All sequences stand within: GGGAGUUCUACAGUCCGACGAUC … UGGAAUUCUCGGGUGUCAAGG
| Strand | log2 enrichment |
| --- | --- |
| UCCUCAAGUCCUGUGCUACACAUCGUAUGUACCGAAUCGGCGGCGGGCGGGAAAGUAUUAUGUUACGCCGUUCGGAUCUGCACUUCCAGC | -0.0232 |
| CUGUGCUACACAUCGUAUGUACCGAAUCGGGGCCCCCCCGGCCCCCCCGGCCCCCCCGGGGAAAGUAUUAUGUUACGCCGUUCGGAUCUG | -0.916 |
| GCAGGAAGUAAAAACAAAUGGAAAUGCUUCGGAUAGUGGCAGGGGUGGGGGUUGCUAAGGAAAGGGUGGGAUGGGAAUGGGUAAAGAGUU | 0.127 |
| CCUGUGCUACACAUCGUAUGUACCGAAUCGGAAAAAAGGGGAAAAAAGGGGAAAAAAGGGGAAAGUAUUAUGUUACGCCGUUCGGAUCUG | -0.649 |
| GUCCUGUGCUACACAUCGUAUGUACCGAAUCGGUUUUUGGAAAAAAAGGAAAAAAAGGAAAGUAUUAUGUUACGCCGUUCGGAUCUGCAC | -0.872 |
| UUCCCACAGCCCAAAAAUCUUCUCAACAGUGUGAUUGGAAGAGCCCUCGGCAUCUCACAUGCAAAAGACAAACUAGUCUACGUGCACACA | 0.299 |
| AAGUCCUGUGCUACACAUCGUAUGUACCGAAUCGGGGAAAGGGGAAAGGGAAAGGGGAAAGUAUUAUGUUACGCCGUUCGGAUCUGCACU | 0.16 |
| UAACUUUAGAGGAGGAUCUGAUGGAUAUGGCAGUGGACGUGGAUUUGGGGAUGGCUAUAAUGGUUAUGGAGGAGGACCUGGAGGUGGCAA | 0.17 |
| CUGUGCUACACAUCGUAUGUACCGAAUCGGGGAAAAAGGGGUUUUUGGGGAAAAAAAGGGGAAAGUAUUAUGUUACGCCGUUCGGAUCUG | -0.134 |

Series 4 — technique: universal PBM; molecule type: double-stranded DNA, one strand shown; medium: in vitro; concentration: not given; reading: higher = stronger binding
Target: Sal-like protein 4, full length isoform B (SALL4, Homo sapiens, UniProt Q9UJQ4-2, residues 1-616)
Setting: 8-mer, flanks averaged, mean of replicates
| Strand | E-score |
| --- | --- |
| ACGGTCAA | -0.0421 |
| CATAGCGC | 0.0743 |
| AACTTGCC | -0.0662 |
| GAGGACGC | -0.169 |
| AAAAAGCA | 0.134 |
| GTAGGAAA | 0.00364 |
| TAGCATAA | 0.234 |
| GCGTGACC | -0.264 |
| AGTAGACG | 0.0736 |
| AGCAATAA | 0.271 |
| GGCGCTAC | -0.277 |
| ATGACTAC | 0.139 |
| AGGTATGG | -0.124 |
| GCAGGTCC | -0.295 |
| AACCTTCG | 0.0325 |
| CTTCTTTC | 0.00638 |
| CGAGTGCG | -0.195 |
| CGCCCGTA | -0.276 |
| CCGACCAG | -0.361 |
| ACCGGACT | -0.188 |

Excerpt of the above (series 1):
| Strand | log fluorescence |
| --- | --- |
| GACGACTTCAGACTGGAGACGTGCTAG | -0.411 z-score |
| GACGATTTCAGTCTCGACACGTGCTAG | 1.59 z-score |
| GACGACATCAGTCTCGAGACGTGCTAG | 0.106 z-score |
| GACGGTATCCTTATCCTGTCGTGCTAG | 0.207 z-score |
| GACGGCATCGGTTTCGGGACGTGCTAG | 3.11 z-score |
| GACGGTTTCGGGTTTCGCGACGTGCTA | 7.52 z-score |
| TTAGATTTCAGTATCGATTGGTGCTAG | 8.16 z-score |
